Measured values of several laboratories.
Each line is one published result; not all experiments were run side by side. ± marks the error that the study gave.
Chain of UniProt P06276 (whole entry, looked up): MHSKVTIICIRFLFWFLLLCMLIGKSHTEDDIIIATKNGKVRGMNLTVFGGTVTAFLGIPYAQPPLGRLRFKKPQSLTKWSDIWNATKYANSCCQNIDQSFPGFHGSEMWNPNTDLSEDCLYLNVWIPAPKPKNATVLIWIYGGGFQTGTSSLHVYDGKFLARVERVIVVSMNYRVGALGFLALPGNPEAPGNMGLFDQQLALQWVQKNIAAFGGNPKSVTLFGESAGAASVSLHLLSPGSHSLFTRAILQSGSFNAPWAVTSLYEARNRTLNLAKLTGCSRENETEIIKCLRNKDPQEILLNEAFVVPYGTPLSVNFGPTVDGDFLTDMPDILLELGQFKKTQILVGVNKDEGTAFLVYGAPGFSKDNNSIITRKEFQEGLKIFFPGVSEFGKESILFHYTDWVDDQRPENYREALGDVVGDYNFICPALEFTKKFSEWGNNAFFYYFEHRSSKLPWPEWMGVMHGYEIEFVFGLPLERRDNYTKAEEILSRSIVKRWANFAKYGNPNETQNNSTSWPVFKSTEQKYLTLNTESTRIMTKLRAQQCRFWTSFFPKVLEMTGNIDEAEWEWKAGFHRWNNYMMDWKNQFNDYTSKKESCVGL

Structure (SMILES)	target or system	test	test system	conditions	scale	endpoint	value
CC[C@H](C)[C@@H]1NC(=O)[C@H](CCCNC(=N)N)NC(=O)C[C@@H](c2cccc3ccccc23)NC(=O)[C@@H]2CSSC[C@H](NC(=O)C[C@@H](c3cccc4ccccc34)NC(=O)[C@H](CCCNC(=N)N)NC(=O)[C@@H]3CCCN3C(=O)[C@@H]3CCCN3C1=O)C(=O)N[C@@H](Cc1ccccc1)C(=O)N1CCC[C@H]1C(=O)N[C@@H](CC(=O)O)C(=O)N[C@@H](CC(=O)O)C(=O)N[C@@H](Cc1ccccc1)C(=O)N2		two-compartment model	athymic nude mice (Foxn1)	intravenous, 6 mg/kg		CL	0.0025 mL/min
C[C@]1(CO)Cc2ncn(-c3ccc(C#N)c(Cl)c3)c2C(=O)O1			healthy Japanese adults, plasma	80 mg once daily, dosing interval 24 h		accumulation ratio of AUC	1.1
CC(C)c1nc(N(C)S(C)(=O)=O)nc(-c2ccc(F)cc2)c1/C=C/[C@@H](O)C[C@@H](O)CC(=O)O			healthy human subjects	oral, dose not given, study CL-0537 safety set		incidence of dry mouth	7.1%
CC(C)n1c(C2CCNCC2)nc2c([N+](=O)[O-])c(Br)c(Br)cc21			patients with AML	125 mg, systemic infection		AE leading to interruption	2%
CCN(CCO)CCCC(C)Nc1ccnc2cc(Cl)ccc12 (stereo not shown)			newly diagnosed glioblastoma patients	oral, 400 mg/dose, grade 4, with: radiotherapy and temozolomide		neutrophil decrease patients	14%
N#C[C@H](O[C@@H]1O[C@H](CO)[C@@H](O)[C@H](O)[C@H]1O)c1ccccc1			Sprague Dawley rat, plasma	oral, 3.34 g lyophilized powder/kg, low dose		Vz/F	20.4 ± 8.66 L/kg
OCCN1CCN(CC/C=C2/c3ccccc3Sc3ccc(C(F)(F)F)cc32)CC1	Plasmodium falciparum		3D7			IC50	2.51 µM
O=C(Nc1ccccc1)C1CCN(C(=O)Oc2cccnc2)CC1			healthy women	oral, 60 mg, 7 days		back pain adverse events	0%
COc1cc2c(cc1OC)CN(CCc1ccc(NC(=O)c3cccc4c(=O)c5cccc(OC)c5[nH]c34)cc1)CC2			CD-1 mouse, male, plasma	intraperitoneal, 30 mg/kg		elimination rate constant	1.03e-05 s⁻¹
C=CCNc1c(O)cc2c(O)c1C[C@@H](C)C[C@H](OC)[C@H](O)[C@@H](C)/C=C(\C)[C@H](OC(N)=O)[C@@H](OC)/C=C\C=C(/C)C(=O)N2			unresectable or metastatic STS, GIST, other	intravenous, 300 mg/m^2		patients with constipation TEAE	0%
CCCN(CCC)CCc1c[nH]c2ccccc12	Cholinesterase (BCHE, Homo sapiens, UniProt P06276)	inhibitor				IC50	8.04 ± 0.61 µM
C[C@@H](NC(=O)N1C(=O)[C@H](Cc2ccnc(N)c2)[C@H]1C(=O)O)C1CCCCC1			healthy adult Chinese volunteers	continuous intravenous infusion, 0.6 mg/kg/h, 5-day infusion, CTCAE 5.0 grading		incidence of diarrhea	12.5%
CC(C)(O)c1cc(Nc2cc(Oc3cn(C4CC4)nc3C3CCOCC3)ccn2)ccn1		Pyrexia	patients with advanced cancer, Japanese cohort	oral, dose not given, grade ≥3		treatment-related adverse events	0%
CC1(C)[C@H](C(=O)O[C@H](C#N)c2cccc(Oc3ccccc3)c2)[C@@H]1C=C(Br)Br			pooled human liver microsomes			CLint	0.892 mL/min/mg protein
COc1c(OCCCN2CCOCC2)ccc2c1N=C(NC(=O)c1cnc(N)nc1)N1CCN=C21			patients with advanced malignancies	intravenous, dose not given, all grades, all cohorts, with: gemcitabine		decreased white cell count incidence	30%
O[C@H]1CCCN[C@@H]1CCCn1cnc2c(Cl)c(Cl)ccc21			healthy CYP2D6 intermediate metabolizers, plasma	oral, 150 mg single dose		median Cmax	0.259 µg/mL

Structure (SMILES)	target or system	test	test system	conditions	scale	endpoint	value
CC(C)C[C@@H]1NC(=O)CNC(=O)[C@H](CC(N)=O)NC(=O)[C@H](CCCNC(=N)N)NC(=O)[C@H](CCCCN)NC(=O)[C@@H]2CSSC[C@@H]3NC(=O)[C@H]([C@@H](C)O)NC(=O)CNC(=O)CNC(=O)[C@H](C(C)C)NC(=O)[C@@H]4CSSC[C@H](NC(=O)[C@H]([C@@H](C)O)NC(=O)[C@H](CSSC[C@H](NC(=O)[C@H](C(C)C)NC(=O)[C@@H]5CCCN5C1=O)C(=O)NCC(=O)N[C@@H](CCC(=O)O)C(=O)N[C@@H]([C@@H](C)O)C(=O)N4)NC(=O)CNC(=O)[C@@H]1CCCN1C(=O)[C@H]([C@@H](C)O)NC(=O)[C@H](CC(N)=O)NC3=O)C(=O)N[C@@H](CO)C(=O)N[C@@H](Cc1c[nH]c3ccccc13)C(=O)N1CCC[C@H]1C(=O)N[C@@H](C(C)C)C(=O)N2		HPLC	ammonium bicarbonate	180 µM, 7 days, pH 9.0, 25 °C, deamidation stability		remaining peptide	86.1 ± 0.6%
CCS(=O)(=O)Nc1ccc(Oc2ccc(F)cc2F)c(-c2cn(C)c(=O)c3[nH]ccc23)c1		fatal fungal infection	human, relapsed/refractory AML	oral, dose not given		treatment-emergent adverse events	0%
Cc1cccc(Cn2nc(C3CC3)c3c(NC(=O)c4cnc5cc(OCCN6CCN(C)CC6)ccn45)cccc32)n1		CTCAE v4.03, measured: blood CPK increased	PD-1/PD-L1 inhibitor-refractory patients	oral, dose not given, with: pembrolizumab IV every 3 weeks		all-cause adverse events	47.4%
CC(=O)c1c(C)c2cnc(Nc3ccc(C4CCN(CCS(C)(=O)=O)CC4)cn3)nc2n(C2CCCC2)c1=O			HR+/HER2- advanced breast cancer patients	oral, 25 mg		patients with any TRAE	66.7%
CCc1cccc(N(C)C(=N)Nc2cccc3ccccc23)c1	Plasmodium falciparum		3D7			IC50	12.6 µM
CN1CCN(c2ccc(Nc3nccc(-c4ccc(C#N)cc4)n3)cc2C(F)(F)F)CC1			zebrafish embryos	50 µM, 5 d		toxicity	0%
Clc1ccc(-c2cc(Cl)c(Cl)c(Cl)c2)cc1			PDMS-water partitioning	PCB compilation	reference: maximum over minimum K	literature range factor	1.1
O=C(O)CCCOc1ccc(F)cc1-c1cc(-c2ccccc2C(F)(F)F)n(-c2ccccc2)n1			male Crl:CD(SD) rats, liver	intravenous, 25 µg/kg, 14 d		relative organ weight	2.74 ± 0.12 g%
CN1CC[C@@H](c2c(O)cc(O)c3c(=O)cc(-c4ccc(C(F)(F)F)cc4Cl)oc23)[C@@H]1CO		measured: Thrombocytopenia	relapsed AML	oral, 150 mg, grade 3-4, intermittent dosing		patients with adverse event	25%
COc1cc2c(Oc3ccc4[nH]c(C)cc4c3F)ccnc2cc1OCC1(N)CC1			paediatric recurrent refractory sarcoma	8 mg		grade 1 or 2 Triglyceride elevation	0%
Clc1cc(Cl)c(-c2c(Cl)cc(Cl)cc2Cl)c(Cl)c1			fresh water	20 °C, S100 sampler, 100 µm		log K(PDMS-water)	6.56 ± 0.06
CO[C@H]1C[C@@H]2CC[C@@H](C)[C@@](O)(O2)C(=O)C(=O)N2CCCC[C@H]2C(=O)O[C@H]([C@H](C)C[C@@H]2CC[C@@H](OC(=O)NCCOCCOCCOCCOCCOCCOCCOCCOCCC(=O)N3CCc4cc(Cn5nc(-c6ccc7oc(N)nc7c6)c6c(N)ncnc65)ccc4C3)[C@H](OC)C2)C[C@@H](O)[C@H](C)/C=C(\C)[C@@H](O)[C@@H](OC)C(=O)[C@H](C)C[C@H](C)/C=C/C=C/C=C/1C		phase 1 dose escalation	advanced solid tumour patients	intravenous, 16 mg weekly, any grade		deaths due to TRAEs	0%
Clc1cc(Cl)c(-c2ccc(Cl)c(Cl)c2Cl)cc1Cl			PDMS-water partitioning	PCB compilation	reference: maximum over minimum K	literature range factor	2
CCCCCCCCCCCCCCCC(=O)N[C@@H](CCC(=O)NCCCC[C@H](NC(=O)[C@H](CC(=O)O)NC(=O)[C@H](CO)NC(=O)[C@@H](NC(=O)[C@H](Cc1ccccc1)NC(=O)[C@@H](NC(=O)CNC(=O)[C@H](CCC(N)=O)NC(=O)[C@H](CO)NC(=O)[C@@H](N)Cc1c[nH]cn1)[C@@H](C)O)[C@@H](C)O)C(=O)N[C@@H](CO)C(=O)N[C@@H](CCC(=O)O)C(=O)N[C@@H](Cc1ccc(O)cc1)C(=O)N[C@@H](CC(C)C)C(=O)N[C@@H](CC(=O)O)C(=O)N[C@@H](CO)C(=O)N[C@@H](CCC(=O)O)C(=O)N[C@@H](CCCNC(=N)N)C(=O)N[C@@H](C)C(=O)N[C@@H](CCCNC(=N)N)C(=O)N[C@@H](CC(=O)O)C(=O)N[C@@H](Cc1ccccc1)C(=O)N[C@H](C(=O)N[C@@H](C)C(=O)N[C@@H](Cc1c[nH]c2ccccc12)C(=O)N[C@@H](CC(C)C)C(=O)N[C@@H](CCC(=O)O)C(=O)N[C@@H](C)C(=O)NCC(=O)NCC(=O)O)C(C)C)C(=O)O			human, CrCl ≥20 to <30 mL/min	sc, 100 µg single dose		treatment-related adverse events	50%
COc1ccc(-c2c(-c3ccc(C#N)c(F)c3)nc(N3CCC(N)CC3)n(C)c2=O)cc1F		measured: Thrombocytopenia	human patients	oral, 60 mg, dose expansion		serious adverse event incidence	5%

Excerpt of the above:
Structure (SMILES)	target or system	test	test system	conditions	scale	endpoint	value
CC[C@H](C)[C@@H]1NC(=O)[C@H](CCCNC(=N)N)NC(=O)C[C@@H](c2cccc3ccccc23)NC(=O)[C@@H]2CSSC[C@H](NC(=O)C[C@@H](c3cccc4ccccc34)NC(=O)[C@H](CCCNC(=N)N)NC(=O)[C@@H]3CCCN3C(=O)[C@@H]3CCCN3C1=O)C(=O)N[C@@H](Cc1ccccc1)C(=O)N1CCC[C@H]1C(=O)N[C@@H](CC(=O)O)C(=O)N[C@@H](CC(=O)O)C(=O)N[C@@H](Cc1ccccc1)C(=O)N2		two-compartment model	athymic nude mice (Foxn1)	intravenous, 6 mg/kg		CL	0.0025 mL/min
CC(C)(O)c1cc(Nc2cc(Oc3cn(C4CC4)nc3C3CCOCC3)ccn2)ccn1		Pyrexia	patients with advanced cancer, Japanese cohort	oral, dose not given, grade ≥3		treatment-related adverse events	0%
C[C@]1(CO)Cc2ncn(-c3ccc(C#N)c(Cl)c3)c2C(=O)O1			healthy Japanese adults, plasma	80 mg once daily, dosing interval 24 h		accumulation ratio of AUC	1.1
